Experimental data collected from several papers.
Each line is one published result; not all experiments were run side by side.
T1: riboswitch RNA, extra G-C pair, UUCG loop; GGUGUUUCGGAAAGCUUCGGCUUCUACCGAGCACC
T2: riboswitch RNA SAM-I metF-H2 (Thermoanaerobacter tengcongensis); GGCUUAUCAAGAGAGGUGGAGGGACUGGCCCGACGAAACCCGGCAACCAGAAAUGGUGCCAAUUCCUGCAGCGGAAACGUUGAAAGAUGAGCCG
T3: riboswitch RNA (Pseudomonas aeruginosa); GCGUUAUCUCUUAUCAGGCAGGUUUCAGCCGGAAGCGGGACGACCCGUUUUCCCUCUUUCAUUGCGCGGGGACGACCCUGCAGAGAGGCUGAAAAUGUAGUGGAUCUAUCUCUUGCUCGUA
T4: riboswitch RNA (Mesoplasma florum); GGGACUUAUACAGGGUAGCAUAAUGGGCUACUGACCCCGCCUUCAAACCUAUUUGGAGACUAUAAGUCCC
T5: riboswitch RNA U39C (Bacillus); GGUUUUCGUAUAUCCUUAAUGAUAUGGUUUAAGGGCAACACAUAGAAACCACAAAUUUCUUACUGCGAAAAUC
T6: riboswitch RNA (Paenibacillus durus); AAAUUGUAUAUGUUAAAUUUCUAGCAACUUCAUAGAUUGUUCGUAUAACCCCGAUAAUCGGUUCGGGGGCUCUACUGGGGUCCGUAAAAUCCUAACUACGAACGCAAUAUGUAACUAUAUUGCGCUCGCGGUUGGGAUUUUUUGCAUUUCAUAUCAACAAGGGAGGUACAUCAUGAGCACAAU
T7: riboswitch RNA U11A (Bacillus); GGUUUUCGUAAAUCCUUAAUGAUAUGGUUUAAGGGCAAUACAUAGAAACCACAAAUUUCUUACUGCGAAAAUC

Structure (SMILES) | target | assay | setting | binding
NC[C@H]1O[C@H](O[C@H]2[C@H](O)[C@@H](O[C@H]3O[C@H](CO)[C@@H](O)[C@H](N)[C@H]3O)[C@H](N)C[C@@H]2N)[C@H](N)[C@@H](O)[C@@H]1O | T1, riboswitch RNA, extra G-C pair, UUCG loop | 1H,15N-HSQC NMR | pH 6.2, 283 K | binds
C[S+](CC[C@H](N)C(=O)O)C[C@H]1O[C@@H](n2cnc3c(N)ncnc32)[C@H](O)[C@@H]1O (stereo partly drawn) | T2, riboswitch RNA SAM-I metF-H2 (Thermoanaerobacter tengcongensis) | X-ray crystallography | added: Mg2+, K+ | binds
N=C(N)N | T3, riboswitch RNA (Pseudomonas aeruginosa) | sequencing | – | binds
O=c1ccn([C@@H]2O[C@H](CO)[C@@H](O)[C@H]2O)c(=O)[nH]1 | T4, riboswitch RNA (Mesoplasma florum) | NMR | – | no binding
Nc1nc2[nH]cnc2c(=O)[nH]1 | T5, riboswitch RNA U39C (Bacillus) | ITC | KCl 50 mM | no binding
Nc1nc2c(ncn2[C@H]2C[C@H](O)[C@@H](COP(=O)(O)O)O2)c(=O)[nH]1 | T4, riboswitch RNA (Mesoplasma florum) | NMR | – | no binding
O=c1[nH]c(=O)c2[nH]cnc2[nH]1 | T6, riboswitch RNA (Paenibacillus durus) | transcription termination, function, single-round transcription termination | added: RNA polymerase | no binding
O=c1[nH]cnc2c1ncn2[C@@H]1O[C@H](CO)[C@@H](O)[C@H]1O | T4, riboswitch RNA (Mesoplasma florum) | NMR | – | no binding
Nc1nc2c(ncn2[C@H]2C[C@H](O)[C@@H](CO)O2)c(=O)[nH]1 | T7, riboswitch RNA U11A (Bacillus) | ITC | KCl 50 mM | no binding

Excerpt of the above:
Structure (SMILES) | target | assay | setting | binding
Nc1nc2c(ncn2[C@H]2C[C@H](O)[C@@H](COP(=O)(O)O)O2)c(=O)[nH]1 | T4, riboswitch RNA (Mesoplasma florum) | NMR | – | no binding
